Assay results pooled from the literature.
Each line is one published result; not all experiments were run side by side. Several values in a cell are separate wells, animals, samples, runs or records. ± marks the error that the study gave.

SMILES	assay	system	setting	AUC(0-t)
Cc1ccc(NC(=O)c2ccc(CN3CCN(C)CC3)cc2)cc1Nc1nccc(-c2cncc(-c3oncc3C)c2)n1	–	healthy volunteers, plasma	oral, 25.0 mg once daily, day 1, 7-day dosing, mean	12600 ng·h/mL
C#C[C@]1(O)CC[C@H]2[C@@H]3CCc4cc(O)ccc4[C@H]3CC[C@@]21C	–	HIV-positive women, control arm, serum	oral, 30 µg with levonorgestrel, 72 h, steady state	3.27 ± 0.744 ng·h/mL
CC(C)=CCC[C@](C)(O[C@@H]1O[C@H](CO)[C@@H](O)[C@H](O)[C@H]1O)[C@H]1CC[C@]2(C)[C@@H]1[C@H](O)C[C@@H]1[C@@]3(C)CC[C@H](O[C@@H]4O[C@H](CO)[C@@H](O)[C@H](O)[C@H]4O[C@@H]4O[C@H](CO)[C@@H](O)[C@H](O)[C@H]4O)C(C)(C)[C@@H]3CC[C@]12C	LC-MS/MS	healthy volunteers, serum	oral, 3 g fermented red ginseng	164 ± 77.6 ng·h/mL
O=C(O)C[C@H](O)C[C@H](O)/C=C/c1c(C2CC2)nc2ccccc2c1-c1ccc(F)cc1	–	healthy Chinese female volunteers, plasma	oral, 2 mg once daily, multiple dose	321 ng·h/mL
Cc1nc(-c2ccc(OCC(C)C)c(C#N)c2)sc1C(=O)O	–	healthy Chinese adult volunteers, plasma	oral, 80 mg single dose, fasting	15400 ± 3220 ng·h/mL
CC(C)=CCC[C@](C)(O[C@@H]1O[C@H](CO)[C@@H](O)[C@H](O)[C@H]1O)[C@H]1CC[C@]2(C)[C@@H]1[C@H](O)C[C@@H]1[C@@]3(C)CC[C@H](O[C@@H]4O[C@H](CO)[C@@H](O)[C@H](O)[C@H]4O)C(C)(C)[C@@H]3CC[C@]12C	LC-MS/MS	healthy male volunteers, serum	oral, 3 g red ginseng	2.98 ± 2.01 ng·h/mL
Cc1[nH]c(/C=C2\C(=O)Nc3ccccc32)c(C)c1CCC(=O)O	–	Japanese patients, plasma	oral, 1200 mg/m^2, day 29	25800 ± 2400 ng·h/mL
C[C@H]1Oc2cc(cnc2N)-c2c(nn(C)c2C#N)CN(C)C(=O)c2ccc(F)cc21	–	healthy adults	oral solution, 100 mg single dose, adjusted geometric mean	8600 ng·h/mL
CNC(=O)c1ccc(-c2cnc3ncc(Cc4ccc5ncccc5c4)n3n2)cc1F	–	mild hepatic impairment	oral, 200 mg, mean	4810 ng·h/mL
COc1cc2c(cc1OC)CN(CCc1ccc(NC(=O)c3cc(OC)c(OC)cc3NC(=O)c3cnc4ccccc4c3)cc1)CC2	–	human, plasma	intravenous infusion, 6 mg/kg, up to 24 h post-infusion	16200 ng·h/mL and 20000 ng·h/mL and 18000 ng·h/mL and 20100 ng·h/mL
CCC[C@H](N[C@@H](C)C(=O)N1[C@H](C(=O)O)C[C@@H]2CCCC[C@@H]21)C(=O)O	–	healthy Chinese volunteers, whole blood	oral, 4 mg perindopril tert-butylamine, up to 48 h, fasting, added: indapamide 1.25 mg	60.8 ± 15.7 ng·h/mL
CCC(CC)O[C@@H]1C=C(C(=O)O)C[C@H](N)[C@H]1NC(C)=O	–	healthy Indian subjects, fed, plasma	oral, 75 mg oseltamivir phosphate, 0 to 48 h, test capsule formulation	3770 ± 656 ng·h/mL
NC(=O)c1cnc2[nH]ccc2c1N[C@@H]1[C@@H]2CC3C[C@H]1C[C@@](O)(C3)C2	–	healthy Caucasian men, plasma	oral, 60 mg, single dose fasted	524 ng·h/mL

Repeated from above:
SMILES	assay	system	setting	AUC(0-t)
CC(C)=CCC[C@](C)(O[C@@H]1O[C@H](CO)[C@@H](O)[C@H](O)[C@H]1O)[C@H]1CC[C@]2(C)[C@@H]1[C@H](O)C[C@@H]1[C@@]3(C)CC[C@H](O[C@@H]4O[C@H](CO)[C@@H](O)[C@H](O)[C@H]4O[C@@H]4O[C@H](CO)[C@@H](O)[C@H](O)[C@H]4O)C(C)(C)[C@@H]3CC[C@]12C	LC-MS/MS	healthy volunteers, serum	oral, 3 g fermented red ginseng	164 ± 77.6 ng·h/mL
